Results of several laboratories.
Lines come from different studies, so protocols differ. ± gives the spread as reported. Values after ≈ are worked out from the molar mass of the structure shown.

| Compound | assay | test system | conditions | how to read | endpoint | result |
| --- | --- | --- | --- | --- | --- | --- |
| COc1ccc(-c2nc3ccccc3s2)cc1OCc1nnc(-c2c(C)cccc2C)o1 | seizure protection | albino mouse, scPTZ-induced seizure | ip, 0.5 h | – | minimal effective dose | 100 mg/kg |
| CCc1c2ccccc2c(CC)c2c1ccc1ccccc12 | adrenal apoplexy prevention | rat | oral, added: 7,12-DMBA 5 mg i.v. | – | non-protective dose | 0.5 mg |
| COc1cccc2c1C(=O)c1c(O)c3c(c(O)c1C2=O)C[C@@](O)(C(=O)CO)C[C@@H]3O[C@H]1C[C@H](N)[C@H](O)[C@H](C)O1 | – | mice bearing T47D xenografts | 5 mg/kg once weekly, 20 days after inoculation, treated 2 weeks | – | tumour volume | 53 ± 23.4 mm3 |
| NC(=O)/C(=C/n1cnc(-c2cc(C(F)(F)F)cc(C(F)(F)F)c2)n1)c1cncnc1 | – | Eµ-TCL1 leukaemic splenocytes, C57BL/6 mice CLL transplant | oral gavage, 15 mg/kg 2 times weekly | – | median overall survival | 50 days |
| CS/C(S)=N/CCCC[S+](C)[O-] (racemic) | RT-PCR, refers to: Marcks | rat, colon | oral gavage, 200 mg/kg, 96 h, dosed for four days | baseline: vehicle | mRNA fold change | 6.89 |
| COc1ccc(-c2nc3ccccc3s2)cc1OCc1nnc(Cc2ccccc2)o1 | hind limb tonic extension | albino mouse, MES-induced seizure | ip, 4.0 h | – | minimal effective dose | 300 mg/kg |
| Cc1c(OCC(F)(F)F)ccnc1C[S@@+]([O-])c1nc2ccccc2[nH]1 | – | healthy humans | oral, 60 mg, 0 to 12 h postdose, single dose | – | mean intragastric pH | 4.2 |
| O=c1[nH]c(=S)[nH]c2nc(-c3ccccc3)cc(-c3ccc4ccccc4n3)c12 | DPPH scavenging, absorbance | – | 30 min | – | IC50 | 189 µM |
| CC(=O)N[C@@H](CCCCN)C(=O)N[C@@H](CC(C)C)C(=O)N[C@@H](CC(=O)O)C(=O)N[C@@H](CC(C)C)C(=O)N[C@@H](CCCCN)C(=O)N[C@@H](CC(C)C)C(=O)N[C@@H](CC(=O)O)C(=O)N[C@@H](CC(C)C)C(=O)N[C@@H](CCCCN)C(=O)N[C@@H](CC(C)C)C(=O)N[C@@H](CC(=O)O)C(=O)N[C@@H](CC(C)C)C(N)=O | – | Sprague Dawley rat, knee OA model, synovium | intra-articular, dose not given, 6 weeks | direction not given | synovial inflammation score | 1.3 ± 0.3 |
| Cc1cnc(-c2ccnc(C(C)(C)O)n2)cc1-n1c(C)cc(OCc2ncc(F)cc2F)c(Cl)c1=O | IL-8 release, inhibitor | human, whole blood, ex vivo | plasma concentration, added: LPS | – | IC80 | 0.0388 µg/mL (≈ 0.0755 µM) |
| CC(C)NC[C@@H](C(=O)N1CCN(c2ncnc3c2[C@H](C)C[C@H]3O)CC1)c1ccc(Cl)cc1 | – | human solid tumour patients | oral, 25 to 800 mg, all dosing cohorts | – | stable disease or incomplete response | 34% |
| C[C@H]1C[C@H]2CSC(N)=N[C@@]2(c2nc(NC(=O)c3ccc(OC(F)F)cn3)cs2)CO1 | refers to: CSF Aβx-42 | healthy adults | 50 mg once daily, 14 days, day 15 | baseline: placebo-adjusted baseline | change from baseline | -63.2% |
| COc1ccc(-c2nc3ccccc3s2)cc1OCc1nnc(-c2ccc(N(C)C)cc2)o1 | hind limb tonic extension | albino mouse, MES-induced seizure | ip, 0.5 h | – | minimal effective dose | 100 mg/kg |
| O=C(NC[C@H]1CN(c2ccc(N3CCOCC3=O)cc2)C(=O)O1)c1ccc(Cl)s1 | – | human, moderate renal impairment | 10 mg, added: steady-state erythromycin | baseline: normal renal function, compound alone | prothrombin time Emax increase | ~22% |
| CNCC(CS)CNC | – | nude mouse, A-431 xenograft | topical, 1850 mM, four applications, 14 days, added: 12.1 Gy irradiation | baseline: topical vehicle | irradiated tumour growth | no effect |
| O=C(/C=C/c1ccc(O)c(O)c1)Oc1ccccc1 | DPPH | ethanol | 20 µM, 30 min, room temperature | – | radical scavenging | 67% |
| Cc1cc(C)c(/C=C2\C(=O)Nc3ccccc32)[nH]1 | MRI | human | concentration not given, 1.3 months | – | tumour area | 1.3 cm² |
| O=C1O[C@H]([C@@H](O)CO)C(O)=C1O | DPPH scavenging, absorbance | – | – | – | IC50 | 0.73 µM |
| COc1ccc(-c2nc3ccccc3s2)cc1OCc1nnc(-c2ccc(Br)cc2)o1 | seizure protection | albino mouse, scPTZ-induced seizure | ip, 0.5 h | – | minimal effective dose | 300 mg/kg |
| Cc1c2ccccc2c(C)c2c1ccc1ccccc12 | refers to: adrenal hemorrhage | rat | oral, in oil, against adrenal apoplexy from challenge, added: challenge 5 mg iv | – | non-protective dose | 1.5 mg |

A few entries again:
| Compound | assay | test system | conditions | how to read | endpoint | result |
| --- | --- | --- | --- | --- | --- | --- |
| COc1ccc(-c2nc3ccccc3s2)cc1OCc1nnc(-c2ccc(N(C)C)cc2)o1 | hind limb tonic extension | albino mouse, MES-induced seizure | ip, 0.5 h | – | minimal effective dose | 100 mg/kg |
| O=C(NC[C@H]1CN(c2ccc(N3CCOCC3=O)cc2)C(=O)O1)c1ccc(Cl)s1 | – | human, moderate renal impairment | 10 mg, added: steady-state erythromycin | baseline: normal renal function, compound alone | prothrombin time Emax increase | ~22% |
| CNCC(CS)CNC | – | nude mouse, A-431 xenograft | topical, 1850 mM, four applications, 14 days, added: 12.1 Gy irradiation | baseline: topical vehicle | irradiated tumour growth | no effect |
